Results from different studies.
Each line is one published result; not all experiments were run side by side. Several values in a cell are separate wells, animals, samples, runs or records. ± gives the spread as reported.
NRP1: Neuropilin-1 (NRP1, Homo sapiens, UniProt O14786)
Chain of UniProt O14786 (whole entry, looked up): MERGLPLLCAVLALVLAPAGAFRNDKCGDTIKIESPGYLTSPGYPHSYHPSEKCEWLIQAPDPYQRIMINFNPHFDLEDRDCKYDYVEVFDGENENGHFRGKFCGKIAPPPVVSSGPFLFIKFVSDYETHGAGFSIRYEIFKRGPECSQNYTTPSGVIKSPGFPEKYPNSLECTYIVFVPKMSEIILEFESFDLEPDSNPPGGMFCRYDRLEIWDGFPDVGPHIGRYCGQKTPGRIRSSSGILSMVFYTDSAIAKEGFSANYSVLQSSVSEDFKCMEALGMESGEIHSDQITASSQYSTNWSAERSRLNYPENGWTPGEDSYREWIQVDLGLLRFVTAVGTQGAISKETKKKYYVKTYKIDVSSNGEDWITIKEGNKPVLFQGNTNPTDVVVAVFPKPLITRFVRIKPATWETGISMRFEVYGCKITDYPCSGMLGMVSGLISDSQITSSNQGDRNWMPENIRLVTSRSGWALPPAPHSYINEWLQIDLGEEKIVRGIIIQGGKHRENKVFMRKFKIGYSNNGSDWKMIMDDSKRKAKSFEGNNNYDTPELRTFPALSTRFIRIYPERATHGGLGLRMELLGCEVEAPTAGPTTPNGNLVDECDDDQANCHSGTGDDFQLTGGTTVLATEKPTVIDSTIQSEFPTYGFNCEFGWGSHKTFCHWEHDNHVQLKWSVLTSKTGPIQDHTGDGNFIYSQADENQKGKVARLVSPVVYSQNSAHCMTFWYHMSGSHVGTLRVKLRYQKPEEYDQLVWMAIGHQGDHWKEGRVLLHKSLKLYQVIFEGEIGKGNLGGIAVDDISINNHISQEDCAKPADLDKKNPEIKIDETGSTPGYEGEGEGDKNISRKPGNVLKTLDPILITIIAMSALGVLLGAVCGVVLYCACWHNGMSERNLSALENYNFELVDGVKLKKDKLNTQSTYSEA
lecA: PA-I galactophilic lectin (lecA, Pseudomonas aeruginosa, UniProt Q05097)
Chain of UniProt Q05097 (whole entry, looked up): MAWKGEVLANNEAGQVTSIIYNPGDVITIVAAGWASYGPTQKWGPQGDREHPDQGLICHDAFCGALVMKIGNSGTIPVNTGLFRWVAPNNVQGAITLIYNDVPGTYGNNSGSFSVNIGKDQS
Histone chaperone ASF1A: Histone chaperone ASF1A (Homo sapiens, UniProt Q9Y294)
Chain of UniProt Q9Y294 (whole entry, looked up): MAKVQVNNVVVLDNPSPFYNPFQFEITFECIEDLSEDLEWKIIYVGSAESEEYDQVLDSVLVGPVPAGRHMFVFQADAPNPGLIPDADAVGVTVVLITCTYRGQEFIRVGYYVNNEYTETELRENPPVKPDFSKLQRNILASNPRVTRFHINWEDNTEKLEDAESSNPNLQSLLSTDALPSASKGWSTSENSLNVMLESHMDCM
GRB2 N-terminal SH3 domain: Growth factor receptor-bound protein 2, N-terminal SH3 domain (GRB2, Homo sapiens, UniProt P62993)
Chain of UniProt P62993 (whole entry, looked up): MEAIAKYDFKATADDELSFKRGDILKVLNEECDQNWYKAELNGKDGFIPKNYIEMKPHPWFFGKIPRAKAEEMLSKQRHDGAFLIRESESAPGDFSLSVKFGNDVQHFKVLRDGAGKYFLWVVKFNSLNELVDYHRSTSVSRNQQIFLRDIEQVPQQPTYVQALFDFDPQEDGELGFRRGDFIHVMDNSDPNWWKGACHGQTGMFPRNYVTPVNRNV
Complement C3: Complement C3 (Homo sapiens, UniProt P01024)
Chain of UniProt P01024 (whole entry, looked up): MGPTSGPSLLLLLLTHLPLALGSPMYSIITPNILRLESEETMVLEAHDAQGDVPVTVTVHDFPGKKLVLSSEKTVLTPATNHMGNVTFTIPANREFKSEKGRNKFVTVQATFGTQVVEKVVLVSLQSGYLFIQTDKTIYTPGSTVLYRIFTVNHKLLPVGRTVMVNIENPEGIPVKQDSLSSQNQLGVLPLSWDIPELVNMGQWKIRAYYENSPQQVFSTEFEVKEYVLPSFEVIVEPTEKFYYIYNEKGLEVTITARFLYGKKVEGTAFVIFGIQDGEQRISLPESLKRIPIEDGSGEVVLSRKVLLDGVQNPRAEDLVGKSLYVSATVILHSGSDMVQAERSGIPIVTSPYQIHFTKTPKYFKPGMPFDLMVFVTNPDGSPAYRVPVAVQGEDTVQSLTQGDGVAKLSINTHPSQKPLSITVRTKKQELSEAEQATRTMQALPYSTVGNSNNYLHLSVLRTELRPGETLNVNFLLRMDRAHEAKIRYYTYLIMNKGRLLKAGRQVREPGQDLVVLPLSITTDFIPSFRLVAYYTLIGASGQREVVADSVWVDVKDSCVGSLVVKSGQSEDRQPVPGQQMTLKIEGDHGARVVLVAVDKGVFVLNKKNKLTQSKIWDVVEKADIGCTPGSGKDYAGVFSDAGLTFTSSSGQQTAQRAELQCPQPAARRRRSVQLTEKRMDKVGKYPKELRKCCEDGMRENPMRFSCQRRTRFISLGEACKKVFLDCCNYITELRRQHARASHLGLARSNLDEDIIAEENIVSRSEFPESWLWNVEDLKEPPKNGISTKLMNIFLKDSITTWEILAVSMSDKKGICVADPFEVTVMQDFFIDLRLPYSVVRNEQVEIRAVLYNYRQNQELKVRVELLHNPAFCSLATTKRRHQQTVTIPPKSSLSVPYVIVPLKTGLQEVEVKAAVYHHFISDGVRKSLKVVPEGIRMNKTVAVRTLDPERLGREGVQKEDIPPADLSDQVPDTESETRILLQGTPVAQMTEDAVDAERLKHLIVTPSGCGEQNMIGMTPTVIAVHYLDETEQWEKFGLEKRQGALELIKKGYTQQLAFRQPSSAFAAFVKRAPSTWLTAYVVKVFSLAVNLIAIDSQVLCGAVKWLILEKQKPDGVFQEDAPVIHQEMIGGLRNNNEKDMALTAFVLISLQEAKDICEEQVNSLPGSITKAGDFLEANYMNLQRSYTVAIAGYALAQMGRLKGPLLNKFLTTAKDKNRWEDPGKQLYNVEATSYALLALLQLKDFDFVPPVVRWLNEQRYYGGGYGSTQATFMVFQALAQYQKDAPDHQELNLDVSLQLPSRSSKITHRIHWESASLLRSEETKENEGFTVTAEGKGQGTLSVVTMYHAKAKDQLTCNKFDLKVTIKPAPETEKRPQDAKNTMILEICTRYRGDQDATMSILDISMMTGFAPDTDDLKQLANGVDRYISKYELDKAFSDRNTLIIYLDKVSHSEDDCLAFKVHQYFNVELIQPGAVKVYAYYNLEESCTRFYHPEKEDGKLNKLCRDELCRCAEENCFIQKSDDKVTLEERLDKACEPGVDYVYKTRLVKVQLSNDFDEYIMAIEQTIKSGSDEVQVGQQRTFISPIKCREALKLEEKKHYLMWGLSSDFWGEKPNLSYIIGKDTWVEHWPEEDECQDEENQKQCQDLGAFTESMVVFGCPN
Chain of UniProt Q9ULV8 (whole entry, looked up): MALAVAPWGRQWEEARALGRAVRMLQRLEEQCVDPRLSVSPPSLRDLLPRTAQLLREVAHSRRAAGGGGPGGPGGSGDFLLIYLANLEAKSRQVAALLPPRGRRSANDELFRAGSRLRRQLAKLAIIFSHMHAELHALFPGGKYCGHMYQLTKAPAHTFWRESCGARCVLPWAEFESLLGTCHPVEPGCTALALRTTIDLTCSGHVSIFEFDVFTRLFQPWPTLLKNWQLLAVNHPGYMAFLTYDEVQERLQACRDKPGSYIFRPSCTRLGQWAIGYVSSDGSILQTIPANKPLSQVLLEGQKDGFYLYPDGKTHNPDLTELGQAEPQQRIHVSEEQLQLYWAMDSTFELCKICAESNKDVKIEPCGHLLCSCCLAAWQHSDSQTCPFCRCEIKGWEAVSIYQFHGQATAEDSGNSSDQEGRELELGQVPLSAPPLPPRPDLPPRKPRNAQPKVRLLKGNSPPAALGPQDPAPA
Chain of UniProt P35222 (whole entry, looked up): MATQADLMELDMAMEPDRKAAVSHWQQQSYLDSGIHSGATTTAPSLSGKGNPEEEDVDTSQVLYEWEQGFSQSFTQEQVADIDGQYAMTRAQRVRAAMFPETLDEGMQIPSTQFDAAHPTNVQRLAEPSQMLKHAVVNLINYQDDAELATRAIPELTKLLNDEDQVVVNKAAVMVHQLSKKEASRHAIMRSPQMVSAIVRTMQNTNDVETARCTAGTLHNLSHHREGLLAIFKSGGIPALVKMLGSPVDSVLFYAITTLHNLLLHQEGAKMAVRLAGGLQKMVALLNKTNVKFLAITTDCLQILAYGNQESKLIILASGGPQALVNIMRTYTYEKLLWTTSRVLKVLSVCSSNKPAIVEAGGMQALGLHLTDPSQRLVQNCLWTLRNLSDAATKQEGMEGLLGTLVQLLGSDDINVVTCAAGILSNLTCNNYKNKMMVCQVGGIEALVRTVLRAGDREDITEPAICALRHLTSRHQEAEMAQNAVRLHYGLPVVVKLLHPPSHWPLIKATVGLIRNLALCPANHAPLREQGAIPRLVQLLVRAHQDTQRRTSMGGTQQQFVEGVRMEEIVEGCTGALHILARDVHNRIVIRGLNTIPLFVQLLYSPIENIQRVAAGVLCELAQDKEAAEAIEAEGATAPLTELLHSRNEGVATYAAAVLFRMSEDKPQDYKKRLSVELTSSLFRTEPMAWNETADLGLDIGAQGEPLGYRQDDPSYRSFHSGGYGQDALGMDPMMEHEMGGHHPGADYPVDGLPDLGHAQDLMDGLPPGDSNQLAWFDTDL
Chain of UniProt Q04917 (whole entry, looked up): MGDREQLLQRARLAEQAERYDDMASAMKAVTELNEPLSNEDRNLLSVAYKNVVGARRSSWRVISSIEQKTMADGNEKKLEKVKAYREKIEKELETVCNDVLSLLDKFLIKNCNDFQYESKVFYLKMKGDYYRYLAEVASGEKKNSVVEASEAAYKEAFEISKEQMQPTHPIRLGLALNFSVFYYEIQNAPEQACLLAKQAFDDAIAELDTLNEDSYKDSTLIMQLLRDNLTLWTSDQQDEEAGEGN
Chain of UniProt O31698 (whole entry, looked up): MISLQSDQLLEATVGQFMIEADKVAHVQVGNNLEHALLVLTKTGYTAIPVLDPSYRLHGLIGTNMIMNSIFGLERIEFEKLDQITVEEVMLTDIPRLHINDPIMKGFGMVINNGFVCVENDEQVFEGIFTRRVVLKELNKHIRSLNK

Compound	target	test	test system	setting	scale	Kd
N=C(N)NCCC[C@H](NC(=O)[C@H](CCCNC(=N)N)NC(=O)[C@H](CC(N)=O)NC(=O)[C@H](CCCNC(=N)N)NC(=O)[C@@H]1CCCN1C(=O)[C@H](CCCCN)NC(=O)[C@H](CCCCN)NC(=O)[C@H](CCC(N)=O)NC(=O)[C@H](CC(=O)O)NC(=O)[C@@H](N)Cc1c[nH]c2ccccc12)C(=O)O	NRP1	binding, ITC	–	pH 7.4	–	33 µM
O=P(O)(O)O[C@@H]1[C@@H](O)[C@H](O)[C@H](O)[C@H](O)[C@H]1OP(=O)(O)O	Inositol 1,4,5-trisphosphate-gated calcium channel ITPR1, IP3-binding core (Itpr1, Rattus norvegicus, UniProt P29994, R504Q)	binding, 3H-IP3 competition	–	IP3-binding core IBC^R504Q	–	0.624 µM
CCc1cccc2c(C(=O)COC(=O)C34CC5CC(CC(Br)(C5)C3)C4)c[nH]c12	KAI2 (Arabidopsis thaliana, UniProt Q9SZU7)	binding, fluorescence	–	–	–	> 250 µM
OC[C@H]1O[C@@H](Oc2ccc(OCc3cn([C@H]4[C@H](O)[C@@H](O)[C@H](c5cn([C@H]6[C@H](O)[C@@H](O)[C@H](n7cc(COc8ccc(O[C@@H]9O[C@H](CO)[C@H](O)[C@H](O)[C@H]9O)cc8)nn7)O[C@@H]6CO)nn5)O[C@@H]4CO)nn3)cc2)[C@H](O)[C@@H](O)[C@H]1O	lecA	binding, ITC	–	pH 7.5	–	0.094 µM
Nc1nc2c(ncn2[C@@H]2O[C@@H]3COP(=O)(O)O[C@H]4[C@@H](O)[C@H](n5cnc6c(N)ncnc65)O[C@@H]4COP(=O)(O)O[C@H]3[C@H]2O)c(=O)[nH]1	darB (Bacillus subtilis, UniProt O31698)	binding, ITC	–	–	–	1.17 µM
N=C(N)NCCC[C@H](NC(=O)[C@@H](N)CS)C(=O)NCC(=O)N[C@@H](CC(=O)O)C(=O)N[C@@H](CCCCN)C(=O)O	NRP1	binding	–	–	–	1.4 µM
CC(C)=CCC[C@](C)(O)[C@H]1CC[C@]2(C)[C@@H]1[C@H](O)C[C@@H]1[C@@]3(C)CC[C@H](O)C(C)(C)[C@@H]3CC[C@]12C	14-3-3 protein zeta/delta (YWHAZ, Homo sapiens, UniProt P63104, R127A)	biolayer interferometry	–	R127A mutant	–	228 ± 0.001 µM
Cc1ccc(OCC(=O)N[C@@H](Cc2cn(CCNC(=O)c3ccc(S[C@@H]4O[C@H](CO)[C@H](O)[C@H](O)[C@H]4O)cc3)nn2)C(=O)NCCO)cc1	lecA	binding, ITC	–	–	–	6.8 µM
COc1cc(-c2nc3ccc(C(=O)NCCCN4CCN(c5cccc(C)c5C)CC4)cc3n2C2CCC2)cc(OC)c1OC	Activin receptor type-1-like (ACVRL1, Homo sapiens, UniProt P37023)	binding, TR-FRET	–	–	–	0.0032 µM
O=C(COc1ccccc1)N[C@@H](Cc1cn(CCNC(=O)c2ccc(S[C@@H]3O[C@H](CO)[C@H](O)[C@H](O)[C@H]3O)cc2)nn1)C(=O)NCCO	lecA	binding, ITC	–	–	–	9.4 µM
CC[C@@H]1NC(=O)CNC(=O)[C@H](Cc2c[nH]c3ccccc23)NC(=O)[C@H](CC(=O)O)NC(=O)[C@H](CCC(N)=O)NC(=O)[C@H](Cc2c[nH]c3ccccc23)NC(=O)[C@H](C(C)C)NC(=O)[C@@H](NC(=O)[C@@H](NC(C)=O)[C@@H](C)CC)CSSC[C@@H](C(=O)N[C@H](C(N)=O)[C@@H](C)O)NC(=O)[C@H](CCCN=C(N)N)NC(=O)[C@H](Cc2c[nH]cn2)NC1=O	Complement C3, C3b fragment (Homo sapiens, UniProt P01024)	SPR	–	25 °C	–	0.252 ± 0.025 µM
CC1=CC(C)(C)Nc2c(C(=O)O)cc(F)cc21	E3 ubiquitin-protein ligase CBL-C (Homo sapiens, UniProt Q9ULV8)	binding, NMR	–	–	–	840 µM
CC[C@H](C)[C@H](NC(=O)[C@H](CCCNC(=N)N)NC(=O)NC[C@H](CCC(N)=O)NC(=O)NC[C@H](CC(C)C)NC(=O)NC[C@H](CCCNC(=N)N)NC(=O)NC[C@H](Cc1c[nH]c2ccccc12)NC(=O)[C@H](CCCCN)NC(=O)[C@H](CCC(=O)O)NC(C)=O)C(=O)N[C@@H](C)C(N)=O	Histone chaperone ASF1A	binding, ITC	–	pH 7.5	–	10.6 µM
CC(=O)N[C@H](C(=O)N[C@H](C(=O)N[C@@H](CCCNC(=N)N)C(=O)N[C@@H](CC(N)=O)C(=O)N[C@@H](CC(=O)O)C(=O)N[C@H](C(=O)N1CCC[C@@H]1C(=O)N1CCC[C@H]1C(=O)N[C@@H](CC(=O)O)C(=O)N[C@@H](CO)C(=O)N[C@@H](CC(C)C)C(=O)N[C@@H](CC(C)C)C(=O)N[C@H](C(=O)N[C@@H](Cc1ccccc1)C(N)=O)C(C)C)C(C)C)[C@@H](C)O)C(C)C	Catenin beta-1 (CTNNB1, Homo sapiens, UniProt P35222)	binding	–	–	–	~2 µM
N=C(N)c1cc(-c2ccccc2)c(-c2cncn2CCN)s1	YWHAH/AMOT (Homo sapiens, UniProt Q04917+Q4VCS5)	binding, microscale thermophoresis	–	pH 7.4, 25 °C, together with: Cy5 peptide 50 nM	–	161 µM
CCCC[C@@H](CNC(=O)N[C@@H](CCC(N)=O)CNC(=O)N[C@@H](CCCNC(=N)N)C(=O)N[C@H](C(=O)N[C@@H](C)C(N)=O)[C@@H](C)CC)NC(=O)NC[C@H](CCCNC(=N)N)NC(=O)NC[C@H](Cc1ccc2ccccc2c1)NC(=O)[C@H](CCCCN)NC(=O)[C@H](CCC(=O)O)NC(C)=O	Histone chaperone ASF1A	binding, ITC	–	pH 7.5	–	4.3 µM
CCOC(=O)C1=CN([C@@H]2O[C@H](CO)[C@@H](O)[C@H]2O)C=CC1	NAD-dependent protein deacylase sirtuin-5, mitochondrial (SIRT5, Homo sapiens, UniProt Q9NXA8, R105A)	binding, MST	–	–	–	130 µM
C=CCCO[C@@H]1C[C@@H](C(=O)N[C@@H](CCCNC(=N)N)C(=O)N[C@@H](CCCNC(=N)N)C(=O)N[C@@H](CCCNC(=N)N)C(N)=O)N(C(=O)[C@@H]2CCCN2C(=O)[C@@H](NC(=O)[C@@H]2C[C@H](OCC=C)CN2C(=O)[C@@H]2CCCN2C(=O)[C@@H]2CCCN2C(=O)[C@@H](NC(C)=O)C(C)C)C(C)C)C1	GRB2 N-terminal SH3 domain	binding, tryptophan fluorescence	PBS	21 °C	–	12.2 ± 0.4 µM
OC(Cc1cc(-c2ccc(C(O)C(F)(F)F)s2)sc1-c1ccc(-c2sc(-c3ccc(C(O)C(F)(F)F)s3)cc2CC(O)C(F)(F)F)s1)C(F)(F)F (centres unmarked)	Amyloid-beta precursor protein, Aβ40/Aβ42 aggregates (APP, Homo sapiens, UniProt P05067)	Aβ40 Aβ42 aggregate binding, fluorescence	–	200 min aggregation, Aβ40:Aβ42 9:1	–	2.1 µM
O=C(COCCc1ccccc1)N[C@@H](Cc1cn(CCNC(=O)c2ccc(S[C@@H]3O[C@H](CO)[C@H](O)[C@H](O)[C@H]3O)cc2)nn1)C(=O)NCCO	lecA	binding, SPR	–	–	–	6.9 µM
CC(C)[C@@H]1NC(=O)[C@@H](NC(=O)[C@@H](N)Cc2c[nH]c3ccccc23)CSSC[C@@H](C(=O)N[C@@H](Cc2c[nH]c3ccccc23)C(N)=O)NC(=O)[C@H](CCCNC(=N)N)NC(=O)[C@H](CC(N)=O)NC(=O)[C@H]([C@@H](C)O)NC(=O)CNC(=O)[C@H](Cc2c[nH]c3ccccc23)NC(=O)[C@H](CC(=O)O)NC(=O)[C@H](CCC(N)=O)NC(=O)[C@H](Cc2c[nH]c3ccccc23)NC1=O	Complement C3	surface plasmon resonance	–	25 °C, 1:1 binding model	–	0.51 µM
COc1ccc(Nc2nc(N3CCOCC3)c3nc[nH]c3n2)cc1OC	Tyrosine-protein kinase BTK (BTK, Homo sapiens, UniProt Q06187)	binding, ITC	–	–	–	5 µM
CC(=O)N[C@H](C(=O)N1CCC[C@H]1C(=O)N1CCC[C@H]1C(=O)N1C[C@@H]2C[C@H]1C(=O)N[C@@H](C(C)C)C(=O)N1CCC[C@H]1C(=O)N1C[C@@H](C[C@H]1C(=O)N[C@@H](CCCNC(=N)N)C(=O)N[C@@H](CCCNC(=N)N)C(=O)N[C@@H](CCCNC(=N)N)C(N)=O)OCC=CCO2)C(C)C	GRB2 N-terminal SH3 domain	binding, tryptophan fluorescence	PBS	21 °C	–	~33 µM and 33.5 µM
CC(=O)N[C@@H](Cc1c[nH]c2ccccc12)C(=O)N[C@H]1CSSC[C@@H](C(=O)N[C@H](C(N)=O)[C@@H](C)O)NC(=O)[C@H](CCCNC(=N)N)NC(=O)[C@H](Cc2c[nH]cn2)NC(=O)[C@H](C)NC(=O)CNC(=O)[C@H](Cc2c[nH]c3ccccc23)NC(=O)[C@H](CC(=O)O)NC(=O)[C@H](CCC(N)=O)NC(=O)[C@H](Cc2c[nH]c3ccccc23)NC(=O)[C@H](C(C)C)NC1=O	Complement C3	surface plasmon resonance	–	25 °C, 1:1 binding model	–	0.52 µM
C[n+]1cc2cc3cc(ccc31)NC(=O)CCCCC(=O)Nc1ccc3c(c1)cc(c[n+]3C)C(=O)Nc1ccc3[nH]cc(c3c1)CCNC2=O	Pu22 G-quadruplex DNA	microscale thermophoresis	–	–	–	0.09 ± 0.01 µM
CSCC[C@H](NC(C)=O)C(=O)NCC(=O)NCC(=O)N[C@@H](CCC(=O)O)C(=O)N[C@@H](CC(C)C)C(=O)N[C@H](C(=O)N[C@H](C(=O)NCC(=O)N[C@@H](CC(C)C)C(=O)NCC(=O)N[C@@H](C)C(=O)N[C@@H](CC(C)C)C(=O)N[C@@H](CCCNC(=N)N)C(=O)N[C@@H](CCCNC(=N)N)C(=O)N[C@@H](CCCNC(=N)N)C(=O)N[C@@H](CCCCN)C(=O)N[C@@H](CCCNC(=N)N)C(=O)N[C@@H](CC(C)C)C(=O)N[C@@H](CC(C)C)C(=O)N[C@@H](CCC(=O)O)C(=O)N[C@@H](CCC(N)=O)C(=O)N[C@@H](CCC(=O)O)C(=O)N[C@@H](CCCCN)C(=O)N[C@@H](CCCNC(=N)N)C(N)=O)[C@@H](C)O)C(C)C	Kcnma1 (Mus musculus, UniProt Q08460)	channel block, inside-out patch clamp	–	–	upper bound	< 25 µM

For quick reference, copied from above:
Compound	target	test	test system	setting	scale	Kd
N=C(N)c1cc(-c2ccccc2)c(-c2cncn2CCN)s1	YWHAH/AMOT (Homo sapiens, UniProt Q04917+Q4VCS5)	binding, microscale thermophoresis	–	pH 7.4, 25 °C, together with: Cy5 peptide 50 nM	–	161 µM
CCCC[C@@H](CNC(=O)N[C@@H](CCC(N)=O)CNC(=O)N[C@@H](CCCNC(=N)N)C(=O)N[C@H](C(=O)N[C@@H](C)C(N)=O)[C@@H](C)CC)NC(=O)NC[C@H](CCCNC(=N)N)NC(=O)NC[C@H](Cc1ccc2ccccc2c1)NC(=O)[C@H](CCCCN)NC(=O)[C@H](CCC(=O)O)NC(C)=O	Histone chaperone ASF1A	binding, ITC	–	pH 7.5	–	4.3 µM
CCOC(=O)C1=CN([C@@H]2O[C@H](CO)[C@@H](O)[C@H]2O)C=CC1	NAD-dependent protein deacylase sirtuin-5, mitochondrial (SIRT5, Homo sapiens, UniProt Q9NXA8, R105A)	binding, MST	–	–	–	130 µM
